Measured values of several laboratories.
Parts stem from different laboratories: compare values within a part only.

Sample 1 — technique: RNA Bind-n-Seq; form: RNA; matrix: in vitro; tested at: 365 nM; reference: no-protein control; direction: higher = stronger binding; measurement: RBNS enrichment (R)
Target: RNA binding protein fox-1 homolog 2, RRM domain, GST-SBP tag (RBFOX2, Homo sapiens, UniProt O43251-10, residues 100-194)
Setting: natural RNA segment, single round, ends assumed
All sequences stand within: GGGAGUUCUACAGUCCGACGAUC … UGGAAUUCUCGGGUGCCAA
Construct (chain): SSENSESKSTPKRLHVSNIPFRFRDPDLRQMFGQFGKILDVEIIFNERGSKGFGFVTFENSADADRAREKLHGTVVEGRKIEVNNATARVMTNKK
Sequence = GUCCAAGGCUGAGUGAGAGCCGGCCAUGCCUCCCCUCCUACUCCUCUGAAUCUCCCGACCUUGGUCCCCUGCCCAAGAGAGGGUAAGGAGGCUGGUGGGGGAUACGGUGG; result = 0.208
Sequence = AUCCCAAGGCAAUACUUCCAGACUAAGGUGGCCAUCCAGCAUUCCUUUGAGUCCUCCAAGAAAGAUGAUACUUGGUUCAUUUCAAAAAACCAAAUGCAGACAAAUGGGAG; result = 0.271
Sequence = UGGAAAAGCUUGGAAGACCUUGGUCUCACCAUUUGUCUACAUUUGUGUGACCAUAAAAUGCUGGGAGCAUUGAGUUUUGUAAUGAUUUAAUGGGUGAGGAUUGCUUUCUC; result = 0.469
Sequence = GAGCCUGGUGCGCCUAGGCCCUCGGACCCCAUCCCCACCCCAGCCGGGCCCGCUCAGGAUGCCCUGGCCCAGGCUUGGGGCUGCUGGGGUUGGAAUGUGGAACUGCAGCC; result = 0.31
Sequence = GUAGACAUAAAGACUUGAUUGCUUUCCAGUUUAAUGAAAGCUUAAAUGUCCCUGCGAACCCACAAUCUCUGCCAGCAGAACUGGUUUUGUUCUGAAUAGUACAGAUUGAU; result = 0.288
Sequence = CCGGGUUAUGGUCGGGUUUCUAUUGGGAAUGCUCUUUGUGCUUUUGGGCAUCUGAAUGGAAGCUUUACAUAGAACCUUAGGUAGAACUCCCCCAAAUCGCCAUAUUUAAA; result = 1.08
Sequence = CCUUAAGACAGUAGAGAUGUCUCUCUUUUAUUUGAGUUUGUGACUGACUUUGCCUAUAUAUCUUUCUGGGGUUUUGUUUGUGUUUAAUUUUUAUUUUGCAUACUGAGGGU; result = 2.01
Sequence = GGCCUCCGAUUCACUCCUGUCCCCUUCCCUGACUUGGUGCUCACAGGCACCUCACUGGGGAUUAUGACCAGGGUCUAGACGAGCUUGAGUCUGAAUUGAGUUUGUAUUUC; result = 0.317
Sequence = GCCUUCGCACCUGGAGGGUCAGAACGUGCACACACUGCUAACUAGUUUGCACCGGCAGUGCCUUUUUCACUGAGGGCACCUGUGCUCUCAGGUCCUUGUCCCUCAUAGCC; result = 0.576
Sequence = UCCCUGGUAGAUUGCGAACUCAAAGUUUUGUGAUCCCAAAGCCAUUCCACUGCAAAUGCCCAGCAGUGAAGAUGGCCUCAAAUUGGGUUCUUGCCUGCAGUGUGUGUGGC; result = 0.429
Sequence = AGAUGCUGAGAGUAGGUGAUAAUGUAUAUUUUACAGAGUGGGGGUUGGCAGGAUGGUGACAUUGAACAUGAUUGCUCUCUGUCUCUUUUUUCAGCUUAUGGGUAUUUAUC; result = 0.684
Sequence = GCUCACAUGCACCUCACUAGGGUUUGUGACCAGGGUCUGGAUGAGCUUGAAUUUGAAUGAAUUGAGUUUGUAUUUCUAGAACCCUGGGUUUUUACAUGUUUGGUCUUUUU; result = 2.02

Sample 2 — technique: protein-binding microarray; form: double-stranded DNA, one strand shown; matrix: in vitro; tested at: 250 nM; setting: 60-bp whole probe; added: salmon DNA 0.4 mg/ml; reference: random background probes; direction: higher = stronger binding; measurement: log fluorescence; all sequences stand within: GCCTAGCAC … GTCTTGATTCGCTTGACGCTGCTG
Target: Interferon regulatory factor 5, full length, phosphomimetic (IRF5, Homo sapiens, UniProt Q13568-2, residues 1-514, K96S/S451D/S453D/S456D/S462D)
Sequence = ATGGCTTTGCCTTTTGCTTTGTGCTAG; result = -0.0323 z-score
Sequence = GACGATCTCAGTAACGAGACGTGCTAG; result = -0.0145 z-score
Sequence = TTAGATATCGGGACTGGACTAGTGCTA; result = 1.01 z-score
Sequence = GACGGTATCCTTATCCTCACGTGCTAG; result = 0.184 z-score
Sequence = TTAGATTTCAGTTTAGATTAGTGCTAG; result = 2.73 z-score
Sequence = GACGATCTCGGGTTTCGAGACGTGCTA; result = 1.44 z-score
Sequence = TCACCTCTGGGCTGTTTGACTGTGCTA; result = -0.0877 z-score
Sequence = GACGATTTCCGTATCGAGACGTGCTAG; result = 2.03 z-score
Sequence = TTACAACTGGGGTTTCGATTAGTGCTA; result = 6.01 z-score
Sequence = TTGCTTCTATAGGCTAGAATCGTGCTA; result = 0.374 z-score
Sequence = GCCGGACTGGGGTTTCGGGACGTGCTA; result = 1.03 z-score
Sequence = TCATTTTTTTTTTTGGAACTGTGCTAG; result = 0.962 z-score
Sequence = TTAGGTCTCCTCTTCCTTTAGTGCTAG; result = -0.14 z-score
Sequence = TTATGTTTCGACACTGGGTTAGTGCTA; result = 6.33 z-score
Sequence = TTATATTTCAGTTCCGATTAGTGCTAG; result = 3.31 z-score
Sequence = TTGGGACTGCTACTGCTTTAGTGCTAG; result = -0.762 z-score
Sequence = GGACCGCGACCTGCCAAGTCGTGCTAG; result = -0.588 z-score
Sequence = TTAGAACTGAGACAGGATTAGTGCTAG; result = -0.369 z-score
Sequence = GACGGTTTCGATCTCGGGACGTGCTAG; result = 7.97 z-score
Sequence = GACGGTTTCGGTATCGGAACGTGCTAG; result = 9.99 z-score
Sequence = GGTCCTCTGGGCTGTTTGGCCGTGCTA; result = -0.913 z-score
Sequence = TCAGCTTCCTCTTTCACACTGTGCTAG; result = 1.77 z-score

Sample 3 — technique: protein binding microarray; form: double-stranded DNA, one strand shown; matrix: in vitro; tested at: not given; reference: not given; direction: higher = stronger binding; measurement: E-score
Target: Histone acetyltransferase KAT6A, winged helix 1, GST fusion (KAT6A, Homo sapiens, UniProt Q92794, residues 1-85)
Setting: 8-mer, flanks averaged, mean of 2 arrays, mostly near background
Construct (chain): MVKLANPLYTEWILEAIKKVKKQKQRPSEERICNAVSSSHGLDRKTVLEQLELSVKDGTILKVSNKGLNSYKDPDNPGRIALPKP
Sequence = CTTACCCC; result = -0.132
Sequence = CACGTTTC; result = -0.129
Sequence = CAACACCA; result = -0.214
Sequence = GATGACGC; result = 0.16
Sequence = AAAAATGA; result = -0.211
Sequence = ACGACGAA; result = -0.137
Sequence = TACTCGCA; result = 0.123
Sequence = ACCACCAA; result = -0.206
Sequence = AATGGCGT; result = 0.168
Sequence = AGCAGAAA; result = -0.137
Sequence = ATTGAGTA; result = -0.113
Sequence = TATTATCA; result = -0.0955
Sequence = CTTAGACA; result = -0.119
Sequence = CCTAACAG; result = -0.045
Sequence = AGAATTCG; result = -0.149
Sequence = CGGACGCC; result = 0.338
Sequence = AAAGGATC; result = -0.0818
Sequence = CTCATGTC; result = -0.0201
Sequence = ATTCTTTC; result = -0.108
Sequence = AACGGACG; result = 0.241
Sequence = AGGAACCA; result = -0.17
Sequence = CTAGGTAA; result = -0.148
Sequence = AGCATCTG; result = -0.181
Sequence = AGTTTAAG; result = -0.214

Sample 4 — technique: aptamer microarray, sandwich; form: DNA with 2'F-ANA; matrix: in vitro; tested at: 200 nM; added: Cy3 exosite-II aptamer, 400 nM; direction: higher = stronger binding; measurement: mean fluorescence intensity; sequence: GGTTGGTGTGGTTGG
Target: Prothrombin, mature alpha-thrombin (F2, Homo sapiens, UniProt P00734)
Setting: whole 15-mer aptamer, many near background
Modification = 2'F-ANA at 2 4 5 7 10 11; result = 46 a.u.
Modification = 2'F-ANA at 1 3 5 7 8 10 13 15; result = 50.7 a.u.
Modification = 2'F-ANA at 1 3 4 5 6 7 9 10 12 14 15; result = 45.5 a.u.
Modification = 2'F-ANA at 5 6 7 8 9 10 13 14 15; result = 45.7 a.u.
Modification = 2'F-ANA at 5 6 7 12 14; result = 46.3 a.u.
Modification = 2'F-ANA at 3 7 8 10 12 15; result = 796 a.u.
Modification = 2'F-ANA at 2 5 7 8 10 12 13; result = 48.5 a.u.
Modification = 2'F-ANA at 1 2 4 6 7 8 11 13 15; result = 87.3 a.u.
Modification = 2'F-ANA at 1 2 3 6 9 10 11 12 13 15; result = 77.4 a.u.
Modification = 2'F-ANA at 2 3 4 5 7 11 13 14 15; result = 50.3 a.u.
Modification = 2'F-ANA at 2 4 5 9 11 12 15; result = 97.7 a.u.
Modification = 2'F-ANA at 2 4 8 9 11 12 13 14 15; result = 96.6 a.u.
Modification = 2'F-ANA at 3 8 9 10 13 14; result = 409 a.u.
Modification = 2'F-ANA at 2 6 7 8 10 11 13 14; result = 99.8 a.u.
Modification = 2'F-ANA at 2 3 5 8 9 10 12 13; result = 56.5 a.u.
Modification = 2'F-ANA at 1 3 4 6 9 13 14; result = 63.7 a.u.
Modification = 2'F-ANA at 4 7 8 12 13; result = 533 a.u.
Modification = 2'F-ANA at 3 4 5 8 9 10 11; result = 64.7 a.u.
Modification = 2'F-ANA at 1 4 5 6 7 8 9 12 15; result = 112 a.u.
Modification = 2'F-ANA at 1 3 5 11; result = 139 a.u.
Modification = 2'F-ANA at 1 5 6 8 11 13 14; result = 49.5 a.u.
Modification = 2'F-ANA at 1 2 3 4 5 7 8 10 12 13 15; result = 59.4 a.u.
Modification = 2'F-ANA at 1 2 5 7 8 9 13 15; result = 49.6 a.u.
Modification = 2'F-ANA at 6 7 8 9 10 12 13 15; result = 176 a.u.
Modification = 2'F-ANA at 1 2 3 5 8 9 10 14; result = 61.2 a.u.

Sample 5 — technique: universal PBM; form: double-stranded DNA, one strand shown; matrix: in vitro; tested at: 600 nM; direction: higher = stronger binding; measurement: E-score
Target: Sal-like protein 4, full length isoform A (SALL4, Homo sapiens, UniProt Q9UJQ4, residues 1-1053)
UniProt Q9UJQ4, sequence (whole entry, looked up): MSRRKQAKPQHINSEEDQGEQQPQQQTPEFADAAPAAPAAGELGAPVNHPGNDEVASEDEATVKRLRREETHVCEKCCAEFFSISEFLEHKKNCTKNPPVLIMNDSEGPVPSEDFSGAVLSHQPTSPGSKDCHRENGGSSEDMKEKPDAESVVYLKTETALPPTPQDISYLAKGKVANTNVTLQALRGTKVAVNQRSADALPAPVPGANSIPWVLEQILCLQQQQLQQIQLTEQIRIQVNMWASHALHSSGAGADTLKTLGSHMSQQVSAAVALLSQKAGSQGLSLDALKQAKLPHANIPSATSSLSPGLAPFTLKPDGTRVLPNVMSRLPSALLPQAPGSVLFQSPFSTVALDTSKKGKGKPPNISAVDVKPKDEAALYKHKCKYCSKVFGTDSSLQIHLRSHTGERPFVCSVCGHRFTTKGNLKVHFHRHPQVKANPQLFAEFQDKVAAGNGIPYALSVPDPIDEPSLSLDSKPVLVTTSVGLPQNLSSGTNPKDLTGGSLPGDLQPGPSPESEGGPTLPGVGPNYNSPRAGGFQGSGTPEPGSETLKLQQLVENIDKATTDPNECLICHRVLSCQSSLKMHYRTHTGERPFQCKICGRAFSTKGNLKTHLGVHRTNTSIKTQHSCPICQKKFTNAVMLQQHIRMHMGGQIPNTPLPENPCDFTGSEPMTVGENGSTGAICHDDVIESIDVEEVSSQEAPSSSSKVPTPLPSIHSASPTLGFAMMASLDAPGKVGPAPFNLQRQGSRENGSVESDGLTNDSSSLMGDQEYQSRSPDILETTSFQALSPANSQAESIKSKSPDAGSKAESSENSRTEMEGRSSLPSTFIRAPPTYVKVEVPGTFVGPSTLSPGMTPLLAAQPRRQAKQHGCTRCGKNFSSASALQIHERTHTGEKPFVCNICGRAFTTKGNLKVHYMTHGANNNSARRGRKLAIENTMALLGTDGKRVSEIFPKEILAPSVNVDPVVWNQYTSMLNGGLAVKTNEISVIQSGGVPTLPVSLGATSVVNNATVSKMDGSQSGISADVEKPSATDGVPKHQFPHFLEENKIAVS
Setting: 8-mer, flanks averaged, mean of replicates
Sequence = CTAGGACC; result = -0.305
Sequence = AAGATATT; result = 0.302
Sequence = TACGTCCA; result = -0.04
Sequence = CTTGCAAA; result = 0.176
Sequence = ACACTCAA; result = 0.193
Sequence = GACGGTGA; result = -0.145
Sequence = CCTCATGC; result = -0.155
Sequence = TACTGGAA; result = 0.13
Sequence = ATTGACCG; result = -0.0137
Sequence = CATCCGAA; result = 0.00905
Sequence = CCCGTTCA; result = -0.11
Sequence = TAGGCCGA; result = -0.251
Sequence = CCTCTTTC; result = -0.141
Sequence = AGTGTCTA; result = 0.105
Sequence = ATTCGGGG; result = -0.127
Sequence = CTCTGCGC; result = -0.322
Sequence = ACAAGCAG; result = 0.0154
Sequence = CAGGGCAC; result = -0.237
Sequence = CGCGACGA; result = -0.138

Some of these lines once more (sample 5):
Sequence = CTAGGACC; result = -0.305
Sequence = AAGATATT; result = 0.302
Sequence = TACGTCCA; result = -0.04
Sequence = CTTGCAAA; result = 0.176
Sequence = ACACTCAA; result = 0.193
Sequence = GACGGTGA; result = -0.145
Sequence = CCTCATGC; result = -0.155
Sequence = TACTGGAA; result = 0.13
Sequence = ATTGACCG; result = -0.0137
Sequence = CATCCGAA; result = 0.00905
Sequence = CCCGTTCA; result = -0.11
